Literature values, collected from citations in different studies.
Protocols differ between the studies behind these lines. Values joined by “and” are separate records of one study, mostly repeats; a detail may differ. Numbers after ± are the reported error. In brackets after ≈: the same amount, converted by molar mass.
UniProt Q8NE63, sequence (whole entry, looked up): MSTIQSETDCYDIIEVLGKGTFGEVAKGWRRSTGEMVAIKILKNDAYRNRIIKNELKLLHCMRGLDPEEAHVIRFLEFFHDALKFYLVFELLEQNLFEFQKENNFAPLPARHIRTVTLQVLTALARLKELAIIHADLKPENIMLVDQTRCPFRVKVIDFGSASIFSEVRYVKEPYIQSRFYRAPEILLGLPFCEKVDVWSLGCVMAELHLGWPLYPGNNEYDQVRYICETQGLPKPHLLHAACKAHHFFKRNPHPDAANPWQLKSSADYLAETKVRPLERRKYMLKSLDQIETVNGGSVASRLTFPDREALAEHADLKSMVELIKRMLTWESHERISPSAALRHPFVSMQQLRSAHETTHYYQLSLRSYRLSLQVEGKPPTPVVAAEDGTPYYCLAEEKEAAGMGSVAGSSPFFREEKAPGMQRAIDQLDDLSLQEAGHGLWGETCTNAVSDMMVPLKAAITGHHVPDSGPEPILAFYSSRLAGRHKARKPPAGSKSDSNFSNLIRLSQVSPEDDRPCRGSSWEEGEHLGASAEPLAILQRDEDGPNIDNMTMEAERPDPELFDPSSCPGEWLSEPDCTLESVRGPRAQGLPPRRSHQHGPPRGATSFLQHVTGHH

COc1nccnc1C(C)C  odour detection threshold (human, water): 0.004 µg/kg
OC[C@H]1O[C@H](O[C@]2(CCl)O[C@H](CCl)[C@@H](O)[C@@H]2O)[C@H](O)[C@@H](O)[C@H]1Cl  sweetness potency (sensory evaluation; human sensory panel, water; unit not given; baseline: sucrose): 600
CCOC(=O)N1CCC(=C2c3ccc(Cl)cc3CCc3cccnc32)CC1  AC50 (antioxidant response element activation, Tox21 HTS): 6.4 µM
Cc1ccc(Nc2nccc(N(C)c3ccc4c(C)n(C)nc4c3)n2)cc1S(N)(=O)=O  patients with stable disease (paediatric sarcoma patients; dose not given): 52.6%
CCc1nccnc1C  odour detection threshold (human, water): 130 µg/kg
CN(C)C(=O)c1cc2cnc(Nc3ccc(N4CCNCC4)cn3)nc2n1C1CCCC1  %T/C (MCF7, mouse, MCF7 orthotopic xenograft; 75 mg/kg once daily, single agent): 19%
CN/C(=N\C#N)NCCCc1c[nH]cn1  ED50 (antinociception, hot plate test; rat; intracerebroventricular, 5 min): 221 nmol
Cc1cnc(C)cn1  odour detection threshold (human, water): 1700 µg/kg
CN(C)c1ccc2c(c1)C#Cc1ccc([N+](C)(C)C)cc1C#C2.O=C([O-])C(F)(F)F  second-order rate constant (SPAAC cycloaddition, substrate, UV spectroscopy; methanol; room temperature, mean of 2 runs, with: benzyl azide 100 mM): 0.097 M⁻¹ s⁻¹ and 0.0974 M⁻¹ s⁻¹
C[N+]1(C)CCC(OC(=O)C(O)(c2ccccc2)C2CCCC2)C1 (stereo not drawn)  placebo-corrected trough FEV1 change (COPD patients; inhaled, 100 µg once daily, 24 h postdose, dosing day 1; baseline: baseline): 133 mL
CCNCCc1ccc(CN(CC)c2cc(OC)ccc2[C@@H]2CCc3cc(O)ccc3C2)cc1  clinical benefit rate (local investigator assessed; human, ER-positive HER2-negative breast cancer; concentration not given): 20.6%
CCc1c2c(nc3ccc(OC(=O)N4CCC(N5CCCCC5)CC4)cc13)-c1cc3c(c(=O)n1C2)COC(=O)[C@]3(O)CC  overall survival (human gastric or GEJ adenocarcinoma; dose not given, trial): 7.8 months
O=C(c1cccnc1-c1ccncc1)N1CCC(O)(Cc2ccccc2)CC1  placebo-adjusted seizure frequency reduction (measured: convulsive and drop seizures; children with Dravet or Lennox-Gastaut syndrome; dose not given, maintenance period, combined population): 30.5%
CCN(c1cc(-c2ccc(CN3CCOCC3)cc2)cc(C(=O)NCc2c(C)cc(C)[nH]c2=O)c1C)C1CCOCC1  progression-free survival (advanced epithelioid sarcoma patients; dose not given): 5.5 months
Cc1cncc(C)n1  odour detection threshold (human, water): 1500 µg/kg
OCc1cn(Cc2cccc(Cl)c2)c2ccccc12  p-STAT3 in lung tumours (lung tumour model, lung tumour; concentration not given): decreased
NC(=S)NN=Cc1ncccc1N  complete metabolic response (cervical cancer patients; dose not given, randomized phase II, with: IV cisplatin plus radiation): 92%
Nc1cc(C(F)(F)F)c(-c2nc(N3CCOCC3)nc(N3CCOCC3)n2)cn1  remaining activity (HIPK4 (Homo sapiens, UniProt Q8NE63); enzyme activity; 10 µM; baseline: untreated): 86%
Nc1cccc2c1C(=O)N(C1CCC(=O)NC1=O)C2=O (stereo not drawn)  partial response rate (relapsed refractory multiple myeloma patients; dose not given, trial): 13%
C=C1[C@H](CO)[C@@H](O)C[C@@H]1n1cnc2c(=O)[nH]c(N)nc21  HBsAg reduction (chronic hepatitis B patients; dose not given, 48 months, with: lamivudine; baseline: baseline): 0.14 log10 IU/mL
Cc1cc(C)c(CNC(=O)c2cc(Cl)c3c(c2C)O[C@@](C)([C@H]2CC[C@H](N(C)C)CC2)O3)c(=O)[nH]1  objective response rate (relapsed/refractory PTCL patients; 200 mg/day): 43.7%
CN1CC[C@H](c2c(O)cc(O)c3c(=O)cc(-c4ccccc4Cl)oc23)[C@H](O)C1  partial response rate (patients with AML, CLL or non-Hodgkin lymphoma; dose not given): 14%
C[C@]12CC[C@@H]3c4ccc(O)cc4C[C@@H](CCCCCCCCC[S+]([O-])CCCC(F)(F)C(F)(F)F)[C@H]3[C@@H]1CC[C@@H]2O (stereo partly drawn)  median progression-free survival (human, ER+ breast cancer; dose not given, after endocrine therapy progression): 3.8 months
CC1(C)CCC(CN2CCN(c3ccc(C(=O)NS(=O)(=O)c4ccc(NCC5CCOCC5)c([N+](=O)[O-])c4)c(Oc4cnc5[nH]ccc5c4)c3)CC2)=C(c2ccc(Cl)cc2)C1  complete remission rate (human, newly diagnosed AML; concentration not given, with: azacitidine): 37%
Cc1c(C(=O)Nc2ccc(N3C[C@@H](C)O[C@@H](C)C3)nc2)cccc1-c1ccc(OC(F)(F)F)cc1  time to nadir (measured: Gli1 mRNA, stromal; mouse; 40 mg/kg/day, daily dosing): ~72 h
CC(C)(CO)c1cc2cc(NC(=O)C3(c4ccc5c(c4)OC(F)(F)O5)CC3)c(F)cc2n1C[C@@H](O)CO  EC50 (sweat chloride reduction; human cystic fibrosis patients; clinical exposure-response): 0.5 µg/mL (≈ 0.961 µM)
Nc1ccn([C@@H]2CS[C@H](CO)O2)c(=O)n1  HBsAg reduction (chronic hepatitis B patients; dose not given, 6 months, with: entecavir; baseline: baseline): 0.06 log10 IU/mL
CCO[C@H]1CCN(Cc2c(OC)cc(C)c3[nH]ccc23)[C@H](c2ccc(C(=O)O)cc2)C1  patients reaching LDH reduction endpoint (patients with PNH; dose not given, 12 weeks; baseline: patients): ≥ 60%
Cc1ccc(C)c(OCCCC(C)(C)C(=O)O)c1  triglyceride decrease (HIV-negative individuals, plasma; concentration not given): 59.3%
CCCCCCCN(CC)CCCC(O)c1ccc(NS(C)(=O)=O)cc1 (stereo not drawn)  time to AF termination (AF patients; dose not given): 3 to 79 min
Cc1cc(C)c(CNC(=O)c2cc(Cl)c3c(c2C)O[C@@](C)([C@H]2CC[C@H](N(C)C)CC2)O3)c(=O)[nH]1  objective response rate (relapsed/refractory PTCL patients; 200 mg once daily): 44%
C[C@H](O)C(=O)C1=Nc2c(nc(N)[nH]c2=O)NC1  blood phenylalanine (human PKU patients; oral, dose not given, phase II/III trial): decreased
CN[C@@H](C)C(=O)N[C@H]1CN(S(=O)(=O)c2cccc(S(=O)(=O)N3CC[C@H]4CC[C@@H](C(=O)NC(c5ccccc5)c5ccccc5)N4C(=O)[C@@H](NC(=O)[C@H](C)NC)C3)c2)CC[C@H]2CC[C@@H](C(=O)NC(c3ccccc3)c3ccccc3)N2C1=O  treatment cycles (human; 45 mg): > 13 cycles
CC(=O)Oc1ccc(C(c2ccc(OC(C)=O)cc2)c2ccccn2)cc1  AC50 (antioxidant response element activation, Tox21 HTS): 48.3 µM
COC(=O)C1=C(C)NC(C)=C(C(=O)OC)C1c1c(C(F)(F)F)nc2sc(C)cn12  inhibition (calcium-induced contraction; guinea pig aortic strip; 50 µM, with: K+ 80 mM depolarisation): 28 ± 1.5%
CCc1cc2c(cc1CC)CC(NC[C@H](O)c1ccc(O)c3[nH]c(=O)ccc13)C2  placebo-corrected trough FEV1 change (COPD patients; inhaled, 300 µg once daily, 24 h postdose, dosing day 1; baseline: baseline): 140 mL
Cc1cc(-c2nccc3c2ccn3CC(=O)Nc2ccc(-c3cnccn3)cn2)ccn1  lung hydroxyproline content (mouse, bleomycin-induced pulmonary fibrosis; oral, 25 mg/kg once daily, days 14-28): decreased
COc1cc(NC(=O)CCN2CCC(OC(=O)Nc3ccccc3-c3ccccc3)CC2)c(Cl)cc1CNC[C@H](O)c1ccc(O)c2[nH]c(=O)ccc12  placebo-corrected trough FEV1 change (COPD patients; inhaled, 400 µg twice daily, 12 h postdose, dosing day 1; baseline: baseline): 172 mL
C#CCNS(=O)(=O)c1ccc(CCN(Cc2cc(Cl)ccc2OCCC)C(=O)Cc2ccsc2)cc1  serum IL-1β suppression (LPS-challenged mouse; intraperitoneal, 10 mg/kg): ~65%
N#Cc1ccc(C(c2ccc(C#N)cc2)n2cncn2)cc1  survival time (rat C6 glioma model; dose not given, daily dosing): 60 days
Nc1cc(C(F)(F)F)c(-c2cc(N3CCOCC3)nc(N3CCOCC3)n2)cn1  median progression-free survival (human endometrial cancer patients; dose not given, trial): 4.5 months
COC(=O)C1=C(C)NC(C)=C(C(=O)OC)C1c1c(Cl)nc2sc(Cl)cn12  inhibition (calcium-induced contraction; guinea pig aortic strip; 50 µM, with: K+ 80 mM depolarisation): 34 ± 2.9%
Cn1c(=O)oc2ccc(-c3ccc(C[C@@H](C#N)NC(=O)[C@@H]4CNCCCO4)cc3)cc21  pulmonary exacerbations (human patients, trial; dose not given; baseline: placebo): decreased
COC(=O)[C@H](Cc1ccccc1)NC(=O)[C@@H](N)CC(=O)O  sweetness potency (sensory evaluation; human sensory panel, water; unit not given; baseline: sucrose): 200
CC(=O)c1nccnc1C  odour detection threshold (human, water): 4 µg/kg
C=C1C[C@@H]2[C@H](CC[C@]3(C)C(=O)CC[C@@H]23)[C@@]2(C)C=CC(=O)C=C12  invasive breast cancer incidence reduction (human; dose not given, long-term use annual rate): 65%
CNC[C@H](O)[C@@H](O)[C@H](O)[C@H](O)CO.O=C([O-])CN1CCN(CC(=O)[O-])CCN(CC(=O)O)CCN(CC(=O)[O-])CC1.[Gd+3]  relaxivity r1 (human plasma; 310 K, 3 T): 3.5 mM⁻¹ s⁻¹
COc1cc(/C=C/C(=O)O)ccc1O  effective dose (antioxidant effect; rat CLP sepsis; intraperitoneal): 100 mg/kg
Cc1ccc(Nc2nccc(N(C)c3ccc4c(C)n(C)nc4c3)n2)cc1S(N)(=O)=O  median duration of response (human epithelioid sarcoma patients; dose not given): < 2 months
CC(=O)c1cnccn1  odour detection threshold (human, water): 62 µg/kg
COC[C@@H](c1ccc(C(F)(F)F)cc1)N1CCN(C2(C)CCN(C(=O)c3c(C)ncnc3C)CC2)C[C@@H]1C  HIV RNA reduction (treatment-naive HIV patients; 50 mg twice daily, day 14, monotherapy without ritonavir): 1.62 log copies/mL

Repeated from above:
CC(C)(CO)c1cc2cc(NC(=O)C3(c4ccc5c(c4)OC(F)(F)O5)CC3)c(F)cc2n1C[C@@H](O)CO  EC50 (sweat chloride reduction; human cystic fibrosis patients; clinical exposure-response): 0.5 µg/mL (≈ 0.961 µM)
CCN(c1cc(-c2ccc(CN3CCOCC3)cc2)cc(C(=O)NCc2c(C)cc(C)[nH]c2=O)c1C)C1CCOCC1  progression-free survival (advanced epithelioid sarcoma patients; dose not given): 5.5 months
OCc1cn(Cc2cccc(Cl)c2)c2ccccc12  p-STAT3 in lung tumours (lung tumour model, lung tumour; concentration not given): decreased
